{"data": "Measured values pooled from the literature", "note": "Numbered parts are unrelated; each lists some results of a single study. Positions count from the first letter of the parent shown.", "chain of UniProt Q96SW2 (whole entry, looked up)": "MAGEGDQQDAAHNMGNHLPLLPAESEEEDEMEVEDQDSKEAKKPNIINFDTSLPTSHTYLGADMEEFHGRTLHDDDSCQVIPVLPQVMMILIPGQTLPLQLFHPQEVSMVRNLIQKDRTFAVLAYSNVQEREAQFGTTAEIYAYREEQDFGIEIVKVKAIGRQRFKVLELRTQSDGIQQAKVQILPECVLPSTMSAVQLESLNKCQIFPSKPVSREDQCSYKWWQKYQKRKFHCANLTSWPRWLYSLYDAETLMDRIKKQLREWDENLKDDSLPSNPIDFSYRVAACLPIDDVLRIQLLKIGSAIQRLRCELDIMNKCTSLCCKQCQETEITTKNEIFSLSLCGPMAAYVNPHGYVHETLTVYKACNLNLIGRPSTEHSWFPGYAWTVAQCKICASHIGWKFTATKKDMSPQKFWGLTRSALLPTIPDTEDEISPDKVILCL", "chain of UniProt Q9UKS7 (whole entry, looked up)": "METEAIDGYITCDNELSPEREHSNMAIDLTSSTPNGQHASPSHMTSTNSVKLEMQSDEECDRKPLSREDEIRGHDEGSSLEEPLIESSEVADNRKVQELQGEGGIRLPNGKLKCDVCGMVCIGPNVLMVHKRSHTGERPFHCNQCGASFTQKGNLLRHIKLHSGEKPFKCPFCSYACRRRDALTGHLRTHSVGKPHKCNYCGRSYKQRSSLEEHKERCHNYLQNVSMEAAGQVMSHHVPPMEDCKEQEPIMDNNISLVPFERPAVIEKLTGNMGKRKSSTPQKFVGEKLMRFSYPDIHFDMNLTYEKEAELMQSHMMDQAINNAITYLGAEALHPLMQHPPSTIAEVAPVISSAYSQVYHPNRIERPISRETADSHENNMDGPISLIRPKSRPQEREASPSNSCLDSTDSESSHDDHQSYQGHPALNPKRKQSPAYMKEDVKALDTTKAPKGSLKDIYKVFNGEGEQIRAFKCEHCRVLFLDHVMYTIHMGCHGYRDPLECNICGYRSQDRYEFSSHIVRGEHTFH"}
{"data": "Study 1", "target": "ABI1, truncated, D143A, DHFR fusion (Arabidopsis thaliana)", "method": "DHFR PCA, deep sequencing", "sample": "yeast", "setting": "methotrexate growth selection, single substitutions", "with": "(+)-ABA 2500 µM", "relative to": "wild-type fitted maximum", "reading": "higher = stronger binding", "starting sequence": "PYL1, truncated, DHFR fusion (Arabidopsis thaliana); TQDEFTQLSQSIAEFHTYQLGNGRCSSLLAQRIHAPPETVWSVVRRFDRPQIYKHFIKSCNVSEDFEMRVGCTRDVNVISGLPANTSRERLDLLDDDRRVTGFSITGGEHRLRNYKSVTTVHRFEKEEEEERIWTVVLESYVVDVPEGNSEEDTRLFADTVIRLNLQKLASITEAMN; partner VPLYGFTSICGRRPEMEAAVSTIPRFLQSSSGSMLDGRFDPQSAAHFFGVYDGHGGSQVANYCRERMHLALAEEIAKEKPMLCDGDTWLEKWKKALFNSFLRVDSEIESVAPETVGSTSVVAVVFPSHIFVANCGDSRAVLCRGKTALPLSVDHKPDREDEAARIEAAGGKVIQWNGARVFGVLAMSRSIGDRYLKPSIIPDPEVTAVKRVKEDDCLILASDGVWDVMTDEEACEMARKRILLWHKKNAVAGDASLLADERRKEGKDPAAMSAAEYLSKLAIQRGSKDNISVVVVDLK"}
{"Change": "E109M", "relative binding score": "101%"}
{"Change": "L8G", "relative binding score": "86.4%"}
{"Change": "S171K", "relative binding score": "96.5%"}
{"Change": "F157Q", "relative binding score": "32.4%"}
{"Change": "R132T", "relative binding score": "107%"}
{"Change": "Y53A", "relative binding score": "78.1%"}
{"Change": "T73W", "relative binding score": "95.5%"}
{"Change": "D65C", "relative binding score": "93.1%"}
{"data": "Study 2", "target": "Ras GTPase-activating protein-binding protein 1, C-terminal RGG region (G3BP1, Homo sapiens, UniProt Q13283)", "method": "RNA Bind-n-Seq", "form": "RNA", "sample": "in vitro", "tested at": "1 µM", "setting": "whole 134-nt RNA, ends assumed", "with": "150 mM KCl", "relative to": "input library", "reading": "higher = stronger binding", "shared flanks, not repeated": "GGGAGUUCUACAGUCCGACGAUC … UGGAAUUCUCGGGUGUCAAGG", "chain of UniProt Q13283 (whole entry, looked up)": "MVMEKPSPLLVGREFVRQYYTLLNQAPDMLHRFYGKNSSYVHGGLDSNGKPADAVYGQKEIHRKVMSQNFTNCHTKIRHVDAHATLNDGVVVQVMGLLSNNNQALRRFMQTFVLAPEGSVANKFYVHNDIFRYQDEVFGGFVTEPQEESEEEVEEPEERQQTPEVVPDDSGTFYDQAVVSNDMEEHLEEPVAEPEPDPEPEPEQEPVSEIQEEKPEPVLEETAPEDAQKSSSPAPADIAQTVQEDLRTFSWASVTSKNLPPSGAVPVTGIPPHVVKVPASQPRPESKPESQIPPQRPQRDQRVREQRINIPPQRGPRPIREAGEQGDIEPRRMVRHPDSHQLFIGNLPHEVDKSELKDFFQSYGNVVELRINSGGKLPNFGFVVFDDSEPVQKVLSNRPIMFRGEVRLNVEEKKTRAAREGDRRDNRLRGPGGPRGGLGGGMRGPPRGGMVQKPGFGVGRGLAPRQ"}
{"Strand": "UCCUGUGCUACACAUCGUAUGUACCGAAUCGGGAAAAAAAGGGUUUUUGGGUUUUUGGGAAAGUAUUAUGUUACGCCGUUCGGAUCUGCA", "log2 enrichment": -0.535}
{"Strand": "ACCAUGCAGGUGGGCAUCUUUGGGAAGUGGGGCAUGGGGGGGAUAGGGAGGGGGGUAACACUUUGGGAACAGGUGGUCCCAGGUCGUUUC", "log2 enrichment": -0.302}
{"Strand": "CUGUGCUACACAUCGUAUGUACCGAAUCGGGGCCCCCCGGGGCCCCCCGGGGCCCCCCGGGGAAAGUAUUAUGUUACGCCGUUCGGAUCU", "log2 enrichment": -2.62}
{"Strand": "CAAGUCCUGUGCUACACAUCGUAUGUACCGAAUCGGGUUUGGUUUGGGUUUGGGGAAAGUAUUAUGUUACGCCGUUCGGAUCUGCACUUC", "log2 enrichment": -0.755}
{"Strand": "CAAGUCCUGUGCUACACAUCGUAUGUACCGAAUCGGGAAAGGGAAAGGGGAAAGGGAAAGUAUUAUGUUACGCCGUUCGGAUCUGCACUU", "log2 enrichment": 1.4}
{"Strand": "UGCUGUGUCACCGGGAACGCAAAGGCUGGGAAGAAGGCCCUUCUCAAAAUGGACUGGUGUUGCAGGGUGAGAAGCUGCCCCCUGACUUCA", "log2 enrichment": -0.759}
{"Strand": "AAGUCCUGUGCUACACAUCGUAUGUACCGAAUCGGUUUUUUUGGUUUUUGGAAAGGAAAGUAUUAUGUUACGCCGUUCGGAUCUGCACUU", "log2 enrichment": -2}
{"Strand": "GUCCUGUGCUACACAUCGUAUGUACCGAAUCAAACCCAAACCCCCAAACCCCCCCAAAAAAGUAUUAUGUUACGCCGUUCGGAUCUGCAC", "log2 enrichment": -0.965}
{"data": "Study 3", "target": "MAFK, bZIP domain (human)", "method": "DHFR protein complementation", "sample": "yeast", "setting": "single substitutions, most at no-binding floor", "relative to": "wild-type JUN-FOS pair", "reading": "higher = stronger binding", "starting sequence": "JUN, bZIP domain (human); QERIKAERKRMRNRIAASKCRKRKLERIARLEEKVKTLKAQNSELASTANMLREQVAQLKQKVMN; partner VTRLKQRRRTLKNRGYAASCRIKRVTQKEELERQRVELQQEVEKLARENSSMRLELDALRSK"}
{"Change": "L38V", "binding fitness [natural log]": -1.52}
{"Change": "A57T", "binding fitness [natural log]": -1.52}
{"Change": "T48G", "binding fitness [natural log]": -1.5}
{"Change": "I28S", "binding fitness [natural log]": -1.55}
{"Change": "V56H", "binding fitness [natural log]": -1.46}
{"Change": "N42S", "binding fitness [natural log]": -1.47}
{"Change": "A29S", "binding fitness [natural log]": -1.53}
{"Change": "A40L", "binding fitness [natural log]": -1.5}
{"data": "Study 4", "target": "CCNB3, cyclin fold, Cln2 fusion (human)", "method": "yeast growth competition, sequencing", "sample": "yeast", "setting": "strong parent motif", "relative to": "not given", "reading": "higher = stronger binding", "starting sequence": "viral docking peptide; TSVRRALFTGGSD; partner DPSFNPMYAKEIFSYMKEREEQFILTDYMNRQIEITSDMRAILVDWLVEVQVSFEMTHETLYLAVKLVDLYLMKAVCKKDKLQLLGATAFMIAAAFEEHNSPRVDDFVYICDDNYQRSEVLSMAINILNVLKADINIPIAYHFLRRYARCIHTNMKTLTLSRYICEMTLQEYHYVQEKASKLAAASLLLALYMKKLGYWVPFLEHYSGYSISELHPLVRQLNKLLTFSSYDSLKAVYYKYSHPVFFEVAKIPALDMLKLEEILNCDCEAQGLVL"}
{"Change": "TMVRRALFTGGSD [S2M]", "normalised enrichment score": 1.56}
{"Change": "TSVRRALFTGGLD [S12L]", "normalised enrichment score": 1.6}
{"Change": "TSVLRALFTGGSD [R4L]", "normalised enrichment score": 1.09}
{"Change": "TSQRRALFTGGSD [V3Q]", "normalised enrichment score": -0.238}
{"Change": "TSVRRALFTGTSD [G11T]", "normalised enrichment score": 2.43}
{"Change": "TSVRRALFEGGSD [T9E]", "normalised enrichment score": 1.19}
{"Change": "TSVRRAFFTGGSD [L7F]", "normalised enrichment score": -0.0383}
{"Change": "TSVRRALFIGGSD [T9I]", "normalised enrichment score": 1.28}
{"Change": "TSVTRALFTGGSD [R4T]", "normalised enrichment score": 0.234}
{"Change": "TSVRRYLFTGGSD [A6Y]", "normalised enrichment score": 0.212}
{"Change": "TEVRRALFTGGSD [S2E]", "normalised enrichment score": 1.61}
{"Change": "TCVRRALFTGGSD [S2C]", "normalised enrichment score": 2.04}
{"Change": "TSVRRALFVGGSD [T9V]", "normalised enrichment score": 2}
{"Change": "TSVRPALFTGGSD [R5P]", "normalised enrichment score": -0.144}
{"Change": "TSVRRALFTNGSD [G10N]", "normalised enrichment score": 2.47}
{"Change": "TSVRRALFTMGSD [G10M]", "normalised enrichment score": 1.42}
{"Change": "TSVPRALFTGGSD [R4P]", "normalised enrichment score": 0.394}
{"Change": "TIVRRALFTGGSD [S2I]", "normalised enrichment score": 0.987}
{"Change": "TSVRRAHFTGGSD [L7H]", "normalised enrichment score": -0.0198}
{"Change": "TSVRRWLFTGGSD [A6W]", "normalised enrichment score": 0.316}
{"Change": "TSVRRALFTGISD [G11I]", "normalised enrichment score": 1.63}
{"Change": "TSVRAAAFTGGSD [R5A L7A]", "normalised enrichment score": -0.0695}
{"Change": "TSVWRALFTGGSD [R4W]", "normalised enrichment score": 0.533}
{"Change": "TSVRRILFTGGSD [A6I]", "normalised enrichment score": 3.25}
{"Change": "TSVVRALFTGGSD [R4V]", "normalised enrichment score": 0.56}
{"data": "Further values, each from its own experiment"}
{"Compound": "CN1C(=O)COc2c(C(=O)NC3CN4CCC3CC4)cc(Cl)cc21 (stereo not drawn)", "target or system": "Sarcocystis neurona", "assay": "parasite growth", "conditions": "10 µM, 96 h, first screen", "scale": "relative to: untreated", "quantity": "log2 fold change", "value": 0.0743}
{"Compound": "O=C1CCC(N2Cc3c(ccc4c3OCC43CCN(Cc4ccccn4)CC3)C2=O)C(=O)N1 (stereo not drawn)", "target or system": "CRBN/Zinc finger protein Helios (Homo sapiens, UniProt Q96SW2+Q9UKS7)", "assay": "degrader, HiBiT", "test system": "HEK293", "conditions": "123.5 nM", "quantity": "protein remaining", "value": "57.9%"}
{"note": "Repeated from above (study 4):"}
{"Change": "TSVRRALFTGGLD [S12L]", "normalised enrichment score": 1.6}
{"Change": "TSVRRYLFTGGSD [A6Y]", "normalised enrichment score": 0.212}
{"Change": "TSVRRALFEGGSD [T9E]", "normalised enrichment score": 1.19}
{"Change": "TSVRRAFFTGGSD [L7F]", "normalised enrichment score": -0.0383}
{"Change": "TSVRRALFTGISD [G11I]", "normalised enrichment score": 1.63}
{"Change": "TSVVRALFTGGSD [R4V]", "normalised enrichment score": 0.56}
